{"data": "Results from different studies", "note": "A part holds a random share of what one study measured."}
{"data": "Block 1", "target": "Histone acetyltransferase KAT6A, winged helix 2, GST fusion (KAT6A, Homo sapiens, UniProt Q92794, residues 85-181)", "method": "protein binding microarray", "molecule type": "double-stranded DNA, one strand shown", "sample": "in vitro", "tested at": "not given", "setting": "8-mer, flanks averaged, mean of 2 arrays, mostly near background", "baseline": "not given", "direction": "higher = stronger binding", "Target sequence (chain)": "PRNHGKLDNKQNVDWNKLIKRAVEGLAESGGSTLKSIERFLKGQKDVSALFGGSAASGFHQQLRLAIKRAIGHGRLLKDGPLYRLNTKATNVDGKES"}
{"Sequence": "ACTCAGTC", "E-score": -0.147}
{"Sequence": "ATCCAGCC", "E-score": -0.00528}
{"Sequence": "ACAGAGGG", "E-score": -0.07}
{"Sequence": "GATAAACC", "E-score": 0.182}
{"Sequence": "AGCATCAC", "E-score": 0.0138}
{"Sequence": "TCGGACAA", "E-score": 0.0845}
{"Sequence": "AAAAATCC", "E-score": 0.121}
{"Sequence": "ATTACGTG", "E-score": -0.209}
{"data": "Block 2", "target": "Interferon regulatory factor 7, full length, phosphomimetic (IRF7, Homo sapiens, UniProt Q92985, residues 1-503, S101K/S471D/S472D/S475D/S476D/S477D/S483D/S484D/S487D)", "method": "protein-binding microarray", "molecule type": "double-stranded DNA, one strand shown", "sample": "in vitro", "tested at": "250 nM", "setting": "60-bp whole probe", "added": "salmon DNA 0.4 mg/ml", "baseline": "random background probes", "direction": "higher = stronger binding", "all sequences stand within": "GCCTAGCAC … GTCTTGATTCGCTTGACGCTGCTG", "Residues (chain)": "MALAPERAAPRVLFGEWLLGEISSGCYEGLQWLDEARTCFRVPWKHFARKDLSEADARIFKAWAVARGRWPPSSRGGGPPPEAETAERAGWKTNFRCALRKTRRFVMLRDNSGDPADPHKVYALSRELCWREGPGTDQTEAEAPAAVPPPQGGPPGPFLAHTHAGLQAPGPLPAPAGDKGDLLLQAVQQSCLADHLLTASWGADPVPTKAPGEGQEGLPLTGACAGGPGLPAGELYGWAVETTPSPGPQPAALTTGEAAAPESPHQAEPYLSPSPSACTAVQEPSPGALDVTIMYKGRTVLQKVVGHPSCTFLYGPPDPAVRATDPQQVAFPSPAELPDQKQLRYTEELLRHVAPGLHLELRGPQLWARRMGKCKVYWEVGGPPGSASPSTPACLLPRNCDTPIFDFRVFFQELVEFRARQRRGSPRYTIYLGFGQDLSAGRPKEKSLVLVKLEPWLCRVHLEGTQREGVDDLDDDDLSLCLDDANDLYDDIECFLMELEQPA"}
{"Sequence": "GACGGTTTCGACTCTGGGGACGTGCTA", "log fluorescence": "7.68 z-score"}
{"Sequence": "GACGGTACCGGTATCGGGACGTGCTAG", "log fluorescence": "0.906 z-score"}
{"Sequence": "TTAGGTATCGGGACTGGGTCAGTGCTA", "log fluorescence": "-0.0565 z-score"}
{"Sequence": "CAGAATCCAGCTCAGGTTGTGTGCTAG", "log fluorescence": "-0.266 z-score"}
{"Sequence": "TTAGGACTAGACTTTCGGTTAGTGCTA", "log fluorescence": "1.28 z-score"}
{"Sequence": "GACGGTTTCGGACTGAGGACGTGCTAG", "log fluorescence": "4.41 z-score"}
{"Sequence": "CACGGTTTCGGGTTTCGGGACGTGCTA", "log fluorescence": "12.1 z-score"}
{"data": "Block 3", "target": "Ras GTPase-activating protein-binding protein 1, RRM domain (G3BP1, Homo sapiens, UniProt Q13283)", "method": "RNA Bind-n-Seq", "molecule type": "RNA", "sample": "in vitro", "tested at": "1 µM", "setting": "whole 134-nt RNA, ends assumed", "added": "150 mM KCl", "baseline": "input library", "direction": "higher = stronger binding", "all sequences stand within": "GGGAGUUCUACAGUCCGACGAUC … UGGAAUUCUCGGGUGUCAAGG", "UniProt Q13283, sequence (whole entry, looked up)": "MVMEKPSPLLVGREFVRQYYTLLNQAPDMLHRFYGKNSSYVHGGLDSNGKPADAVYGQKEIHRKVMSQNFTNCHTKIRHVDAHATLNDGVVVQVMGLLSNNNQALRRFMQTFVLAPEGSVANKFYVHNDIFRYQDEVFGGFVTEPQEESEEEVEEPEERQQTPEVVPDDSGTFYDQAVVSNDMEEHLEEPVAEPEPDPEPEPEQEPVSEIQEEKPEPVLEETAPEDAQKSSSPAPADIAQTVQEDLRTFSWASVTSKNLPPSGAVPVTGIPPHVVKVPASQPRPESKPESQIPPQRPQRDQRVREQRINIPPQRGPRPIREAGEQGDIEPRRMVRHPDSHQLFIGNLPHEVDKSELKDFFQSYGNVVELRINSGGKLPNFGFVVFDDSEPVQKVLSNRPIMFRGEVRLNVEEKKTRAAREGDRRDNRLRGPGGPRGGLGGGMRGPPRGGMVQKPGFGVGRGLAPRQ"}
{"Sequence": "CACAGACAACACGCACCCACACAGACACAGAGGGAAGGGGUUGGGAUGGGGACAGGGUGAACAGCAGGGCGGGGUAGGACCCCAGCCCCU", "log2 enrichment": -0.0541}
{"Sequence": "GCAGGAAGUAAAAACAAAUGGAAAUGCUUCGGAUAGUGGGAGGGGUGGGGGUUGCUAAGGAAAGGGUGGGAUGGGAGUGGGUAAAGAGUU", "log2 enrichment": 1.3}
{"Sequence": "UCAAGUCCUGUGCUACACAUCGUAUGUACCGAAUCGGUUUGGGGUUUGGGUUUGGAAAGUAUUAUGUUACGCCGUUCGGAUCUGCACUUC", "log2 enrichment": -0.302}
{"Sequence": "UCCUGUGCUACACAUCGUAUGUACCGAAUCGGUUUUUUGGGGUUUUUUGGUUUUUUGGGGAAAGUAUUAUGUUACGCCGUUCGGAUCUGC", "log2 enrichment": -0.198}
{"Sequence": "CUCAAGUCCUGUGCUACACAUCGUAUGUACCGAAUCGGCCGGGGCCGGGCCGGAAAGUAUUAUGUUACGCCGUUCGGAUCUGCACUUCCA", "log2 enrichment": -0.492}
{"Sequence": "CACAGACAACACGCACCCACACAGACACAGAGGGAAGGGGUUGGGAUGGGGACAGGGUGCACAGCAGCGCGGGGUAGGACCCCAGCCCCU", "log2 enrichment": -0.109}
{"Sequence": "CUCAAGUCCUGUGCUACACAUCGUAUGUACCGAAUCGGUGGUUUUUUUGGUGGAAAGUAUUAUGUUACGCCGUUCGGAUCUGCACUUCCA", "log2 enrichment": -0.218}
{"Sequence": "UGGGAGGUGGAUUUUGUUUAUUUUUUUAGCUCAUUUCCAGGGGUGGGAAUAUUUUUUUAAUAUGUGUCAUGAAUAAAGUUGUUUUUGAAA", "log2 enrichment": 2.11}
{"Sequence": "GUCCUGUGCUACACAUCGUAUGUACCGAAUCAAAUUUUUAAACCCAAACCCCCCCAAAAAAGUAUUAUGUUACGCCGUUCGGAUCUGCAC", "log2 enrichment": -0.662}
{"Sequence": "UGGGAGGUGGAUUUUGUUUAUUUUUUUAGCUCAUUUCCAGGGGUGGGAAUUUUUUUUUAAUAUGUGUCUUGAAUAAAGUUGUUUUUGAAA", "log2 enrichment": 2.05}
{"Sequence": "CCUCAAGUCCUGUGCUACACAUCGUAUGUACCGAAUCGGUGGGGUGGGGUGGGAAAGUAUUAUGUUACGCCGUUCGGAUCUGCACUUCCA", "log2 enrichment": 0.265}
{"data": "Single results of other studies"}
{"Substance": "PhoQ, residues 284 288 289 292 302 303 SSCCRF", "target": "PhoP, residues 12 14 15 18 19 LHHSG (Escherichia coli, UniProt P23836)", "assay": "Sort-seq, refers to: YFP reporter", "system": "E. coli", "conditions": "PhoQ-PhoP variant library, added: 10 µM Mg2+", "how to read": "baseline: high Mg2+ state, higher = stronger signaling", "measurement": "fold induction", "value": 4.78}
{"note": "Some of these lines once more (block 1):"}
{"Sequence": "ACTCAGTC", "E-score": -0.147}
{"Sequence": "AGCATCAC", "E-score": 0.0138}
{"Sequence": "ATTACGTG", "E-score": -0.209}
